Experimental data from different studies.
Each line is one published result; not all experiments were run side by side. ± marks the error that the study gave.
Organism: human cytomegalovirus

CCCCCCCCCCCCCC(=O)N[C@@H](CCCNC(=N)N)C(=O)N[C@@H](CO)C(=O)N[C@@H](CCSC)C(=O)N[C@@H](CCCCN)C(=O)N[C@@H](CCCNC(=N)N)C(=O)N[C@@H](CO)C(=O)N[C@@H](CC(C)C)C(=O)N[C@H](C(=O)N1CCC[C@H]1C(=O)N[C@@H](CCCNC(=N)N)C(=O)N[C@@H](Cc1c[nH]c2ccccc12)C(=O)N[C@H](C(=O)NCC(=O)N[C@@H](CC(N)=O)C(=O)N[C@@H](CCCCN)C(=O)N[C@@H](CCCNC(=N)N)C(=O)O)[C@@H](C)CC)[C@@H](C)CC — microtubule nucleation at Golgi (HCMV-infected NHDF; concentration not given; relative to: DMSO): decreased
CC(=O)Oc1ccc(Cn2cc(C)c(=O)[nH]c2=O)cc1C1OC(c2cccc(Cl)c2)=NN1C(C)=O (stereo not shown) — EC50 (cytopathic effect; HEL fibroblasts, AD-169): > 20000 nM
O=C1/C(=N\NC(=S)NN=Cc2cccs2)c2ccccc2N1Cc1ccccc1 — EC50 (viral cytopathogenicity; HEL, Davis): 11320 ± 80 nM
COc1ccc(-c2coc3cc(O)cc(O)c3c2=O)cc1 — IC50 (viral replication, titre reduction; HEL fibroblasts, Towne): 15 µM
CC(=O)Oc1ccc(Cn2cc(C)c(=O)[nH]c2=O)cc1C1OC(c2ccc(Cl)cc2)=NN1C(C)=O (stereo not shown) — EC50 (cytopathic effect; HEL fibroblasts, Davis): > 20000 nM
O=C(NCc1cccc(Cl)c1F)c1cn(Cc2ccc(F)cc2)cc(O)c1=O — EC50 (viral replication, GFP reporter virus; HFF; 168 h): 480 ± 30 nM
O=P(O)(O)Oc1c2c(c(OP(=O)(O)O)c3c1C1CC3c3cc4c(cc31)C1CC4c3ccccc31)C1CC2c2cc3c(cc21)C1CC3c2ccccc21 — virions with membrane distortion (cryo-TEM; 50 µM, 30 min, 37 °C): 84.6%
O=C(NCc1ccc(Cl)cc1Cl)c1cn(Cc2ccc(F)cc2)cc(O)c1=O — EC50 (viral replication, GFP reporter virus; HFF; 168 h): 410 ± 20 nM
CC(=O)Oc1ccc(Cn2ccc(=O)[nH]c2=O)cc1C1OC(c2ccc(Cl)cc2)=NN1C(C)=O (stereo not shown) — EC50 (cytopathic effect; HEL fibroblasts, Davis): > 20000 nM
O=C(NCc1ccc(F)c(F)c1)c1cn(Cc2ccc(F)cc2)cc(O)c1=O — EC50 (viral replication, GFP reporter virus; HFF; 168 h): 740 ± 40 nM
CC(=O)Oc1ccc(Cn2cc(F)c(=O)[nH]c2=O)cc1C1OC(c2cccc(Cl)c2)=NN1C(C)=O (stereo not shown) — EC50 (cytopathic effect; HEL fibroblasts, Davis): > 20000 nM
Cc1ccc(CNC(=O)c2cn(Cc3ccc(F)cc3)cc(O)c2=O)c(F)c1 — EC50 (viral replication, GFP reporter virus; HFF; 168 h): 980 ± 30 nM
CCCCCCC(CC=CCCCCCCCC(=O)OCCOCn1cnc2c(=O)[nH]c(N)nc21)OC(=O)CCCCC1SCC2NC(=O)NC21 (stereo not shown) — EC90 (viral replication, plaque reduction; HFF, AD169): 100 µM

Repeated from above:
COc1ccc(-c2coc3cc(O)cc(O)c3c2=O)cc1 — IC50 (viral replication, titre reduction; HEL fibroblasts, Towne): 15 µM
CC(=O)Oc1ccc(Cn2cc(C)c(=O)[nH]c2=O)cc1C1OC(c2cccc(Cl)c2)=NN1C(C)=O (stereo not shown) — EC50 (cytopathic effect; HEL fibroblasts, AD-169): > 20000 nM
